Published values collected from several papers.
Every numbered part comes from another study and shows a few of its results, in no order.
Sequence of UniProt P49760 (whole entry, looked up): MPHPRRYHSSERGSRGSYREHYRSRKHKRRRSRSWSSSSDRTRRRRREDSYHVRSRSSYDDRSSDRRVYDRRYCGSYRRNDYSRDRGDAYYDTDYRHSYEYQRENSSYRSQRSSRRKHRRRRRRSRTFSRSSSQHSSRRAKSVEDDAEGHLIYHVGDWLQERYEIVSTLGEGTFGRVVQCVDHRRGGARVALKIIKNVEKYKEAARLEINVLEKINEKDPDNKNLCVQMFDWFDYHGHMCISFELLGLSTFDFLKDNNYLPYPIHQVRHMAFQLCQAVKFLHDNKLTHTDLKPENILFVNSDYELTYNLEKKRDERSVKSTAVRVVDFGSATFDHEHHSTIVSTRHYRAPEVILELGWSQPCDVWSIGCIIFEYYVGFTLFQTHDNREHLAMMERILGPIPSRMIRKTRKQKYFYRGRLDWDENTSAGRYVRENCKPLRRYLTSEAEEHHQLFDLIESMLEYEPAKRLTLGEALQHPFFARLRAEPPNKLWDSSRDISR
Sequence of UniProt Q15375 (whole entry, looked up): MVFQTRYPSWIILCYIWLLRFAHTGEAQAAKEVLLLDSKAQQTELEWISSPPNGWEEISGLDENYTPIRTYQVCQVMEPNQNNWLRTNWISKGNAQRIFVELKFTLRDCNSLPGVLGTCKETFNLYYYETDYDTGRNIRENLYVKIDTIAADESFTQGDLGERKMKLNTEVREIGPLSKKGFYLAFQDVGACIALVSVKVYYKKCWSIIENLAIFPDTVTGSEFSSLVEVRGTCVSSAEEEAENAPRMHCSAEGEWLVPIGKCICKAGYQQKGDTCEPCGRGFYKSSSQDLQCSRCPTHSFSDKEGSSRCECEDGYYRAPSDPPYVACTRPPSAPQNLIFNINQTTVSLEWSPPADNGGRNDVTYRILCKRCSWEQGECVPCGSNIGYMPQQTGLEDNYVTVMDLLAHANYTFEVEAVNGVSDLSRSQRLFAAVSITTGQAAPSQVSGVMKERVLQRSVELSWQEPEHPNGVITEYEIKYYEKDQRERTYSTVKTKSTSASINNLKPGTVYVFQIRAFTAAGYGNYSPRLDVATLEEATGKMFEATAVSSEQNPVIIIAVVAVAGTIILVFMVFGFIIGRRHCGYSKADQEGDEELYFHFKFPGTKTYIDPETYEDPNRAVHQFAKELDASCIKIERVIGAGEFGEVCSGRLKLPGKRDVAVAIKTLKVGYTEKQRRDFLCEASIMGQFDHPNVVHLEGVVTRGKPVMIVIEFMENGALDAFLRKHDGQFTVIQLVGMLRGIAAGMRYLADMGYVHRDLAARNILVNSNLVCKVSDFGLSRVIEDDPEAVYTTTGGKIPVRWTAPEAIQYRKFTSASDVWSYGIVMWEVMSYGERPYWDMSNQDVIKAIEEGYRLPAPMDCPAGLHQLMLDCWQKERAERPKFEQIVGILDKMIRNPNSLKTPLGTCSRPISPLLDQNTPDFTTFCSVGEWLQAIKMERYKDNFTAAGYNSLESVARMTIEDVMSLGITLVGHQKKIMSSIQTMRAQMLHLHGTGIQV
Sequence of UniProt P42336 (whole entry, unmodified, looked up): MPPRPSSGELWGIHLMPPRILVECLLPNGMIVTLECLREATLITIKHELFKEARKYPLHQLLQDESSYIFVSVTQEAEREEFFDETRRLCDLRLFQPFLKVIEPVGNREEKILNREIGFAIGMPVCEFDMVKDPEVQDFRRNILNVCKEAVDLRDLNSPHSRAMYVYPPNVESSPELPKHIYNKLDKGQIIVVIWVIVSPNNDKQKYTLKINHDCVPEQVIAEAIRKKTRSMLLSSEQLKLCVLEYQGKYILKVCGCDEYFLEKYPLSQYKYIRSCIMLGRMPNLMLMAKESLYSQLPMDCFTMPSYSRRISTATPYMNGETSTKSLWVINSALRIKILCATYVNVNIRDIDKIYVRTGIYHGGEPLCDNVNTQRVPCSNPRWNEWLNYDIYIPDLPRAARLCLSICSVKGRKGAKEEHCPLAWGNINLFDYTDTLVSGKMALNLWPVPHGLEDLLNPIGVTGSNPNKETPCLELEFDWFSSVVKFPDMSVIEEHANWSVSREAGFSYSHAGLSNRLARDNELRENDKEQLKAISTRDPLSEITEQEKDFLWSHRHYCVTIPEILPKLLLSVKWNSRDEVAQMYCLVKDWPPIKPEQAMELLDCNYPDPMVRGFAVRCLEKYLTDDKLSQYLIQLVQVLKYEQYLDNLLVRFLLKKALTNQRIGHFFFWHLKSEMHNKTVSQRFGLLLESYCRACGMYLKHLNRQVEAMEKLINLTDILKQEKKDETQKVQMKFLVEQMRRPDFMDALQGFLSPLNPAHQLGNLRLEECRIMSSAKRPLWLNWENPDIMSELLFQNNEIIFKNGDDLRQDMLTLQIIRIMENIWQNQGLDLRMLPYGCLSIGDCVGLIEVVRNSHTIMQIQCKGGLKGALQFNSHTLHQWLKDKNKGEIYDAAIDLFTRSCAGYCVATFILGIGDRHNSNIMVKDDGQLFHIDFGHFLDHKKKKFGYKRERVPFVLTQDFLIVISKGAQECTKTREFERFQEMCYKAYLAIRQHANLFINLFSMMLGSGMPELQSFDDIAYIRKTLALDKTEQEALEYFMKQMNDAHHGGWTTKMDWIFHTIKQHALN
Sequence of UniProt P30291 (whole entry, looked up): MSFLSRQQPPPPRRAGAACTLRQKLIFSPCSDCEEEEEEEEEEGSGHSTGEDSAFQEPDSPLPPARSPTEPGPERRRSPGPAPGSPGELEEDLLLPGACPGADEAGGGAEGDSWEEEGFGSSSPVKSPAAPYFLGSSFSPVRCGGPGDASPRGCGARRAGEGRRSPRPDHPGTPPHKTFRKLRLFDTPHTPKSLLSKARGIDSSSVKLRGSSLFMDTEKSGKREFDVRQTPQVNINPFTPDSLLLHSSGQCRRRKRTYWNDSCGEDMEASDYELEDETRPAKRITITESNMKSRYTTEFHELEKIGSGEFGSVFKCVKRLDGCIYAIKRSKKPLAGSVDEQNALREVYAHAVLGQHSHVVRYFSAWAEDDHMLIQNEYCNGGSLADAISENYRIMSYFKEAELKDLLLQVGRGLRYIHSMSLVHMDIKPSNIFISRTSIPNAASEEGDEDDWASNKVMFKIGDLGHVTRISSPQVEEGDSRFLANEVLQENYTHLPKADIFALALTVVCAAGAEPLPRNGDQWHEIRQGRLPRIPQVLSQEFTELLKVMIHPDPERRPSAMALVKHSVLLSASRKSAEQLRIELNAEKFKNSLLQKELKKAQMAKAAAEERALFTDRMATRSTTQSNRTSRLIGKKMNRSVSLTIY

Block 1
SMILES: CC#CC(=O)N1CCC[C@H]1c1nc(-c2ccc(C(=O)Nc3ccccn3)cc2)c2c(N)nccn12
Observed: enzyme activity
Mode: inhibitor
Tested at: 1 µM
Measurement: inhibition
NUAK1 (Homo sapiens, UniProt O60285): 0%
BRSK2 (Homo sapiens, UniProt Q8IWQ3): 20%
Tyrosine-protein kinase ABL1, non-phosphorylated (ABL1, Homo sapiens, UniProt P00519): 34%
HIPK1 (Homo sapiens, UniProt Q86Z02): 29%
ULK1 (Homo sapiens, UniProt O75385): 0%
WEE1 (Homo sapiens, UniProt P30291): 0%
ERBB2 (Homo sapiens, UniProt P04626): 94%
CLK2 (Homo sapiens, UniProt P49760): 7%
PAK6 (Homo sapiens, UniProt Q9NQU5): 31%
ACVR2B (Homo sapiens, UniProt Q13705): 0%
SBK1 (Homo sapiens, UniProt Q52WX2): 9%
TTK (Homo sapiens, UniProt P33981): 0%

Block 2
Target: ALK tyrosine kinase receptor (ALK, Homo sapiens, UniProt Q9UM73)
Sequence of UniProt Q9UM73 (whole entry, looked up): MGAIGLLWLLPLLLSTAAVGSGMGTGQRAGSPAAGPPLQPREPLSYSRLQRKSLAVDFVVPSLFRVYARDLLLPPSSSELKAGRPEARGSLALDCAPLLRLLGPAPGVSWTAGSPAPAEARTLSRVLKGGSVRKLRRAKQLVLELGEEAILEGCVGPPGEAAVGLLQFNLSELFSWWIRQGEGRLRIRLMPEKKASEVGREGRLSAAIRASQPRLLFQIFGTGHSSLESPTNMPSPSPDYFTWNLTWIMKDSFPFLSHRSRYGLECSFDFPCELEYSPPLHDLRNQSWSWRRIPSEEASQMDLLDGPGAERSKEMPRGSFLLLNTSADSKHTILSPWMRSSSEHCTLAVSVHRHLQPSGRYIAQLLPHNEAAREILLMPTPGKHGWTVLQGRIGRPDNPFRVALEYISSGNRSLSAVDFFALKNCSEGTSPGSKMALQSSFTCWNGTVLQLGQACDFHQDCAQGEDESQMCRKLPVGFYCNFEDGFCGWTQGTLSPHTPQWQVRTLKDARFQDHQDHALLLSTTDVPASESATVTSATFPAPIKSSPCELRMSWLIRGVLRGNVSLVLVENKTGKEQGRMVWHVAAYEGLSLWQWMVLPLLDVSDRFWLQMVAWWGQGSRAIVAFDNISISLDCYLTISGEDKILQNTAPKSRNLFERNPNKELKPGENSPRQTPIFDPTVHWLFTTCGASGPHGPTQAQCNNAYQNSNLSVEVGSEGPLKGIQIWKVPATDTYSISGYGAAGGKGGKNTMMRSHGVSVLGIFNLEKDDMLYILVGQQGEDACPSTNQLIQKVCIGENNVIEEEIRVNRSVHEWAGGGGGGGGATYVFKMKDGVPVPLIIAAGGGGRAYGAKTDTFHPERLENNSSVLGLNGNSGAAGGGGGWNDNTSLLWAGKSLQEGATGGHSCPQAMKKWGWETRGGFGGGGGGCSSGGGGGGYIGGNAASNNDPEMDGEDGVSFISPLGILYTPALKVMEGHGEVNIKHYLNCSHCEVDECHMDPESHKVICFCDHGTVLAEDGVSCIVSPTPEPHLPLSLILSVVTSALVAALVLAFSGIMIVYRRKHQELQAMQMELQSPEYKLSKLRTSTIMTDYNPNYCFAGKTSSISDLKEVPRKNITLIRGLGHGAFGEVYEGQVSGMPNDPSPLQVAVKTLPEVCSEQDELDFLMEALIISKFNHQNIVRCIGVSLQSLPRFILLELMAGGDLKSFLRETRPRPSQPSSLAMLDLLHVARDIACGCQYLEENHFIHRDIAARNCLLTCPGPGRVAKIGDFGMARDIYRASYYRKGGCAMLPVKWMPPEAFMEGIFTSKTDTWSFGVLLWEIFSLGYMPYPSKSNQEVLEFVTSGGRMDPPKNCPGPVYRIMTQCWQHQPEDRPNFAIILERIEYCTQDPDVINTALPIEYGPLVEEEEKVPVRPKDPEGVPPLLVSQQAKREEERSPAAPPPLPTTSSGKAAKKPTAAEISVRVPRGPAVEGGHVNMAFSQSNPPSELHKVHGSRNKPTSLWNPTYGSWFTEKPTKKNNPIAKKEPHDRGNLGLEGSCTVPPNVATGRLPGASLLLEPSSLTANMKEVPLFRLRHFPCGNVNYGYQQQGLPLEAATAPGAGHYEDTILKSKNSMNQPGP
Observed: enzyme activity
Mode: inhibitor
Tested at: 0.5 µM
Reference: control
Measurement: remaining activity
COc1ccc(C(=O)Nc2sc3c(c2C(N)=O)CCCC3)cc1OC: 66.2%
COc1ccc(CNC(=O)Nc2ncc([N+](=O)[O-])s2)cc1: 100%
CN(C)c1ccc(C=C2C(=O)Nc3ccccc32)cc1: 99.7%
COc1ccc(OC)c2c(=S)c3ccccc3[nH]c12: 105%
O=S(=O)(c1cccc2cnccc12)N1CCCNCC1: 120%
Cc1ccc(Nc2nccc(N(C)c3ccc4c(C)n(C)nc4c3)n2)cc1S(N)(=O)=O: 85.3%
COc1cc2ncnc(Nc3ccc(F)c(Cl)c3)c2cc1OCCCN1CCOCC1: 98.8%
Cc1nc(-c2ccccc2)c(-c2ccncc2)o1: 108%
O=C(CCCc1ccc(-c2ccccc2F)cc1)Nc1ccc(O)cc1: 97%
O=C(Nc1cccc(Nc2cc(Nc3cccc(C(F)(F)F)c3)ncn2)c1)C1CC1: 112%
CC(C)[C@H](CO)Nc1nc(Nc2cc(N)cc(Cl)c2)c2ncn(C(C)C)c2n1: 79.6%
OCC(O)CCON=C1C(c2c(O)[nH]c3ccccc23)=Nc2ccccc21 (stereo not shown): 38.1%
CO[C@H]1C[C@@H]2CC[C@@H](C)[C@@](O)(O2)C(=O)C(=O)N2CCCC[C@H]2C(=O)O[C@H]([C@H](C)C[C@@H]2CC[C@@H](O)[C@H](OC)C2)CC(=O)[C@H](C)/C=C(\C)[C@@H](O)[C@@H](OC)C(=O)[C@H](C)C[C@H](C)/C=C/C=C/C=C/1C: 115%
NCCNc1ncc(C(N)=O)c(Nc2cccc(C(F)(F)F)c2)n1: 80.1%
O=C(O)c1ccc2c3c1cccc3c(=O)n1c3ccccc3nc21: 92.7%

Block 3
SMILES: CO[C@@H](C)c1c(Nc2ccc([C@H](N(C)C(=O)C3CCS(=O)(=O)CC3)C(F)(F)F)cc2)cnc2cc(Cl)nn12
Observed: cell-free assay
Technique: competition with immobilised ligand
Tested at: 1 µM
Measurement: remaining binding
MAP3K5 (Homo sapiens, UniProt Q99683): 84%
MARK1 (Homo sapiens, UniProt Q9P0L2): 69%
AKT1 (Homo sapiens, UniProt P31749): 100%
Ribosomal protein S6 kinase alpha-4, C-terminal kinase domain (RPS6KA4, Homo sapiens, UniProt O75676): 100%
PIK3CA (Homo sapiens, UniProt P42336, E542K): 71%
SIK3 (Homo sapiens, UniProt Q9Y2K2): 100%
FES (Homo sapiens, UniProt P07332): 100%
PRKCH (Homo sapiens, UniProt P24723): 86%
FGFR3 (Homo sapiens, UniProt P22607): 88%

Block 4
Compound: C[C@H]1CC[C@H](n2c3cnccc3c3cnc(Nc4ccc5c(n4)CCN(C(=O)CO)C5)nc32)CC1
Technique: competition with immobilised ligand
Tested at: 1 µM
Measurement: remaining binding
Ribosomal protein S6 kinase alpha-3, N-terminal kinase domain (RPS6KA3, Homo sapiens, UniProt P51812); binding: 8.8%
Ribosomal protein S6 kinase alpha-2, C-terminal kinase domain (RPS6KA2, Homo sapiens, UniProt Q15349); binding: 91%
TXK (Homo sapiens, UniProt P42681); binding: 73%
SIK1 (Homo sapiens, UniProt P57059); binding: 56%
TNIK (Homo sapiens, UniProt Q9UKE5); binding: 37%
SRMS (Homo sapiens, UniProt Q9H3Y6); cell-free assay: 89%
Aurora kinase C (AURKC, Homo sapiens, UniProt Q9UQB9); cell-free assay: 34%
Ribosomal protein S6 kinase alpha-6, C-terminal kinase domain (RPS6KA6, Homo sapiens, UniProt Q9UK32); binding: 42%
MAP2K5 (Homo sapiens, UniProt Q13163); binding: 0.65%
EPHA7 (Homo sapiens, UniProt Q15375); cell-free assay: 94%

A few entries again (block 4):
Aurora kinase C (AURKC, Homo sapiens, UniProt Q9UQB9); cell-free assay: 34%
EPHA7 (Homo sapiens, UniProt Q15375); cell-free assay: 94%
TXK (Homo sapiens, UniProt P42681); binding: 73%
TNIK (Homo sapiens, UniProt Q9UKE5); binding: 37%
MAP2K5 (Homo sapiens, UniProt Q13163); binding: 0.65%
SIK1 (Homo sapiens, UniProt P57059); binding: 56%
